Experimental data of several laboratories.
Parts stem from different laboratories: compare values within a part only. Substitutions count along the parent as printed.

Sample 1
Target: ABI1, truncated, D143A, DHFR fusion (Arabidopsis thaliana)
Method: DHFR PCA, deep sequencing
Medium: yeast
Setting: methotrexate growth selection, single substitutions
Together with: (+)-ABA 200 µM
Baseline: wild-type fitted maximum
Direction: higher = stronger binding
Starting sequence: PYL1, truncated, DHFR fusion (Arabidopsis thaliana); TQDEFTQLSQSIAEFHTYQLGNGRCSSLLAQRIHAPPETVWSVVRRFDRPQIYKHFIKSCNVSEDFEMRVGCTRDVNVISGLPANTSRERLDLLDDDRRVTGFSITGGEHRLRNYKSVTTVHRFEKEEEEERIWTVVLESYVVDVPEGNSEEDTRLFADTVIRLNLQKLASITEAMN; partner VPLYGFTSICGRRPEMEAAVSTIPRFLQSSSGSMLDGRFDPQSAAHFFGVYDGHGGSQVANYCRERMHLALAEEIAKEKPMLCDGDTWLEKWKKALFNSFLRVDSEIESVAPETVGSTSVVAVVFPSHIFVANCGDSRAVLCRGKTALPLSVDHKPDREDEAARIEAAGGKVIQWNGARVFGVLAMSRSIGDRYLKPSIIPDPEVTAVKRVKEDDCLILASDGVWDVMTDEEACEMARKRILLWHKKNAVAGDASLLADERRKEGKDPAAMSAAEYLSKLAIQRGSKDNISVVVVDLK
Change	relative binding score [%]
L82Q	43.4
S87Y	22.8
S27G	102
I57H	38.9
K54R	52
L28V	97.3
D65T	97.9
G148H	82.2
G148V	50.6
L20S	104
P146N	34.9
I105M	78.2
R111T	31.4
L8P	52.8

Sample 2
Target: CCNA1, cyclin fold, Cln2 fusion (human)
Method: yeast growth competition, sequencing
Medium: yeast
Setting: weak parent motif
Baseline: not given
Direction: higher = stronger binding
Starting sequence: CDKN1A docking peptide (human); SKACRRLFGPVDS
Change	normalised enrichment score
SKACRRLFGGVDS [P10G]	0.383
SKACRRLFKPVDS [G9K]	0.524
SMACRRLFGPVDS [K2M]	0.865
SKACRRLFDPVDS [G9D]	0.556
SKACRRLFGPDDS [V11D]	1.56
SKACRRLFGNVDS [P10N]	0.6
SKACRRLFCPVDS [G9C]	0.59
SIACRRLFGPVDS [K2I]	0.492
SCACRRLFGPVDS [K2C]	0.0857
SKACRRLFGEVDS [P10E]	0.66
SKACRRLFGSVDS [P10S]	0.936
SKACRQLFGPVDS [R6Q]	0.563
SKACRRSFGPVDS [L7S]	-0.44
SKAIRRLFGPVDS [C4I]	0.0564

Sample 3
Target: Sal-like protein 4, full length isoform B (SALL4, Homo sapiens, UniProt Q9UJQ4-2, residues 1-616)
Method: universal PBM
Molecule type: double-stranded DNA, one strand shown
Medium: in vitro
Concentration: not given
Setting: 8-mer, flanks averaged, mean of replicates
Direction: higher = stronger binding
Strand	E-score
CATAATTC	0.384
ATTCGCGA	-0.00711
TAACGTCA	0.255
TAAGTCAA	0.196
GTCACAGA	0.00032
TCCTTCGA	-0.122
ATGGTCTA	0.0124
AATTTGAC	0.22
GGGTAGAC	-0.241
ATCGCCTA	-0.124
AGCTGCTG	-0.19
AGGAGAAC	-0.142
CAAACACC	-0.0426
GCATGGGC	-0.212
ACGAGTAC	0.0374
CCTCTTAG	0.0471
CAGCGACC	-0.32
GACAGGTC	-0.207

Mixed results
Molecule	target	test	test system	setting	how to read	quantity	value
PhoQ, residues 284 288 289 292 302 303 WSHMKI	PhoP, residues 12 14 15 18 19 GHCSL (Escherichia coli, UniProt P23836)	Sort-seq, measured: YFP reporter	E. coli	PhoQ-PhoP variant library, together with: 10 µM Mg2+	baseline: high Mg2+ state, higher = stronger signaling	fold induction	2.48
